Measured values pooled from the literature.
Parts stem from different laboratories: compare values within a part only.

Block 1
Target: RNA binding protein fox-1 homolog 2, RRM domain, GST-SBP tag (RBFOX2, Homo sapiens, UniProt O43251-10, residues 100-194)
Method: RNA Bind-n-Seq
Form: RNA
Sample: in vitro
Tested at: 365 nM
Notes: natural RNA segment, single round, ends assumed
Relative to: no-protein control
Direction: higher = stronger binding
Shared flanks, not repeated: GGGAGUUCUACAGUCCGACGAUC … UGGAAUUCUCGGGUGCCAA
Construct (chain): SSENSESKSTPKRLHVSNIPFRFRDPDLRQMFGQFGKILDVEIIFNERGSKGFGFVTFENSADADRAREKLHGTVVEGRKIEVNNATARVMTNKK
Oligonucleotide | RBNS enrichment (R)
UUUCCCCCUUACUGUCAUUGGUCAGUGGAGCAGAUUCUCAUGGCUGUAGGUAGUUGCUACACAGGAAGCGAAGGAACUUUGGGGAGUCACAAGGUGAGUGGGUAGGGGGG | 1.04
AAAACUGGCACAUUUGUUCUGCAGACUAUUGCAGGAAUGUUUUUUCCUAGCAUUUCUAUAUUAUCUGUCCAUUCUGAGGAACCAGUGAAUGUCCUAUAAAUGCACCUCCU | 0.944
CUAUGGUUAUAGACACCCACUUCAGACAUUACCAAGAGUCGAUCACUGACUUAAAAAUUUUAAUUUCUAUAGUUAAGAUUUACAACAUAAUAUAGAGUGAAAGUUAACAU | 0.43
CUUAAACCAGGUGAAAGAGCAAAGUUCAAGUGCCUACUUAUGUGUCAUUCGCUCAUGUAAGAGUUUUUAAGAGAGGGCUGAUUAUCACAGCCCUCUUUUCUCCUGAAUUU | 0.241
AGAGUAGCUAGGAUUACAGAUACGUGCCACCAUACCCGGCUAAUUUUUAUAUUUUUAGAGACAGGGAUUCAACAUGUUGGUUAGGCUGGUCUUGAACUCCUCACCUCAGG | 0.36
AGAGGGUUGCCUAUGGUGGGCACUAGGAAUGAGGUCCCCUGCCUCGAUGCGGGUCCUAGGAGAAAAAGUCCUACUUUUCUGGGUCCCCAGGUGCAGCACCUCCCGGAGAC | 0.412
UUACUGAGGGAGCCAGGCUCUGCCGUCCAAAUGUAGGCCUUUUGUUGUGUUGUAUUUUUGUUUUUAAAUAAAAGUACAGUAUAAAUUUUCCUAUUAAAUAAGAUUAUUUU | 0.392
GCUUUAGAGUUUUCUGAAUUCCUGCGCCUUCCUGACGUGAGCCCUGAGCGAUCUUCUAUGCAGUUCUGCCAUGCGUCCUGUUGGUCUCUCUGUGUUCUUUGUUACUUGGG | 0.431
CGAACUGACAGGACACAGCAGGCUGGAGUUGGUGUUAGAUUGCUUCACAUUCUCUUGUCACCACCAAGAACUCCAAGUUUUUCGUUUUGUUUUGUUUUCAAAGUGCUUAC | 0.439
CCCCUCCCCAGACGCCUCCAUUAACCACAGACUAUGUAGCGCUGGCCCUAGCCUCUGGCAGAGCCUGUUCCUGGCCAAACUGUGGCUACAGCUGGAGGGUCAGGAACUGU | 0.354
UAACAUUAUGAGAGAAAAGCAUAAAACAAAAAUAGGUAGUUCUUGGCUUUUAACAUUAAUGCAAAUCAUGCAGAAUUUGAGUUAUAAAUUUAAAUAUAAAUUGACCAUUG | 0.674
UUUUUGCUCUAAUCUCUCUGCCGAAAGUCAAAGUGAUGGGAGAAUUGGUAUACUGGUAUGACUACGUCUUAAGUCAGAUUUUUAUUUAUGAGUCUUUGAGACUAAAUUCA | 0.253

Block 2
Target: Sal-like protein 4, full length isoform B (SALL4, Homo sapiens, UniProt Q9UJQ4-2, residues 1-616)
Method: universal PBM
Form: double-stranded DNA, one strand shown
Sample: in vitro
Tested at: not given
Notes: 8-mer, flanks averaged, mean of replicates
Direction: higher = stronger binding
Oligonucleotide | E-score
ACAAAACG | 0.132
GACACAAA | 0.0604
CGACGTAC | -0.0905
CAACCGTA | -0.131
GCTAGTGA | -0.0637
GGCGGACC | -0.413
ATGCTCAA | 0.094
AGGACAAA | 0.175
CGTTCCCA | 0.00758
CGGACAGC | -0.222
CCGAGGTC | -0.348
CCGGGCCG | -0.431
GTTGAGAA | -0.0262
GCCTTACA | -0.013
GTAGTTAA | 0.105
CGGGCCGC | -0.448
CCTCAACC | -0.17
ACGGGCAT | -0.173
CCAATTGG | 0.14
CACCGGCG | -0.287
AGTATACG | 0.229
CCCCTACG | -0.256
ATGCTCTA | 0.00516
CAGGGGCC | -0.376

Block 3
Target: RING finger protein unkempt homolog, zinc fingers 1-6, GST-SBP tag (UNK, Homo sapiens, UniProt Q9C0B0, residues 30-357)
Method: RNA Bind-n-Seq
Form: RNA
Sample: in vitro
Tested at: not given
Notes: RNA with constant flanks, human-mouse chimeric sites, ends assumed
Relative to: input RNA pool
Direction: higher = stronger binding
Shared flanks, not repeated: GGGAGUUCUACAGUCCGACGAUC … CAACAGAGGAUUGAGCAUCA
Construct (chain): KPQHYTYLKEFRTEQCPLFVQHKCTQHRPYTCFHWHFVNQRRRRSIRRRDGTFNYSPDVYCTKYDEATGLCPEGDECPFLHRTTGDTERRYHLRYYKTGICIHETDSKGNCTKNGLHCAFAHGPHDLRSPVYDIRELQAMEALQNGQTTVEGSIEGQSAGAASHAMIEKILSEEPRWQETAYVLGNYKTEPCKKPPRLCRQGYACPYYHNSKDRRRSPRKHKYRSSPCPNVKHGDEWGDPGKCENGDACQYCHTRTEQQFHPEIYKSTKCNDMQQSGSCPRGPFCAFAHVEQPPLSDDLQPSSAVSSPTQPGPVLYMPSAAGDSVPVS
Oligonucleotide | bound/input enrichment [ratio]
GGGACUGAUUCAUCCCAAGGACAGGCCACCCCAUUUGAUGCCUGGACUGAUGACAGUAUGGAAGGGCCUAGUCAAAAUUUUGAAGCUGAGUCAAUUCAAGAUAAUGCGAGUAUGGAAGAG | 0.483
GGUGGGGUGGUCAUUGCGCCAAUUGAGGCUGAUUUUCUUAUGAAUCAUUCAAAACUCUCGUGUAGGGUUGACAAUGUGGGGGGGUGGGGGAUCCAGCUUAUUCUUUUAUUUUCAAGUCCA | 0.86
UACUACUAUGAUGGUGAUAUUGGAAAUUAUUAUUAUGGCCAGGGUCAUCCCAUGAAGCCUCAUAGAAUCCGGAUGACUCAUAACUUGCUGCUAAAUUAUGGUUUAUACCGAAAAAUGGAA | 0.18
CUGGCCUUCUGAGCAUCAGGGGCCUCCUUUCGUAUAGUCACUGCUUCUGCAUCAGAUACUUUCAGCUGCAACUCCCUGCAGGGUGGGGCACCCAUUUCAGGCAGAAGGUUUUGGUACCCU | 0.254
GGAAGUACAAUGAUGGAGAUUGAUGGUGACAAAGGCAAGCAGGGCGGGCCCACCUACUACAUAGACACCAAUGCCCUGCGUGUUCCGAGGGAGAAUAUGGAGGCCAUCUCACCACUCAAG | 0.233
CCCUCCCCGGGCCACCCACCCCUCCCGGCUCCCCGCCGAGAUCCAGGUUUCUUCUGUUUUCAUAGCAAAUAAGAAAAAUGUUCUACGCACAUUUUGUCCUCAGUAAAAGAGGGCCUCUGG | 2.23
GGACAUCUUGUCAGGAUUUAUGUUCCUGUGAAACAAGUGAACACUCUGAUACACUUCAUCUGCUUGUACAUCUGUAUGAUAGAGAAAUGUAAAUAUGAAUAUAUUUACAAUGUGUCACUU | 0.113
GAGCGUCUCGCUCGAACUGGGAUCAUCGUGACCACGAGUGAGGCUGUCCUCCUACAGCUGGUGGCUGACAAAGACCACCCGAAGUUCAAGGAAAUUCAGAACCUAAUUAAGGCGAGUGCC | 0.0877
CCCACGCCUCCUCUCCCACAGGCCCAAGAUAUAACCCACCAGUGCCUUCUGUCUGCUUGUCAGCUCUGUCAAUCACGCCUGUCCUCUCACGCCCACACCAAGUGCCCAAAGUGGGGAGGG | 0.658
GAUAGGAAAAGCUUGUUGGAGACCCGCUUGCAUGUCACUGGCAGAGACCUGAGGUGUCAAAUAGCUGAAACUUUCGGAUUUCAAGAAAAUUACAUCAAGAUCGUAAUAAAUAAGAAACAG | 0.256
UCUGGUCACACUCGUGUGUAUGGUGUUUGCUUUGUGGACACUUCACUGGGCAAGUUUUUCAUAGGUCAGUUUUCGGAUGACCGCCACUGUUCCAGAUUUAGGACUCUAGUGGCUCACUAU | 0.155

Block 4
Target: PABPC1L2, full length, GST fusion (mouse, UniProt A0ABA7IW68)
Method: RNAcompete
Form: RNA
Sample: in vitro
Tested at: 20 nM
Notes: 7-mer, probes averaged, single round
Relative to: mean of 7-mers
Direction: higher = stronger binding
Construct (chain): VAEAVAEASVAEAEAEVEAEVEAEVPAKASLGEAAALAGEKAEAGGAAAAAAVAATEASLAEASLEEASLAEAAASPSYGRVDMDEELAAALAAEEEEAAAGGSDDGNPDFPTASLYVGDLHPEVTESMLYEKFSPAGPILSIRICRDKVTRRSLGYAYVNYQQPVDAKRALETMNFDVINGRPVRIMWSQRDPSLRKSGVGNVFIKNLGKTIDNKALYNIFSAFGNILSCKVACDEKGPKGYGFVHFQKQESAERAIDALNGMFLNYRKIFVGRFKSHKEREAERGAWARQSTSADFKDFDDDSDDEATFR
Oligonucleotide | 7-mer Z-score
GUCACAA | 0.0678
CUGUGUC | -0.273
GUAUAAC | -0.0989
GGUCUGG | 0.137
GACCAUU | -0.175
CUUAUGA | -0.168
CACCUGG | -0.253
GGUGCGA | 0.236
AUGGAUU | -0.146
GCGGCGA | 0.401
GGCCGGC | -0.271
CCAUCAG | -0.168
UCCACUA | -0.286
UCCUGCU | -0.405
UCAGGAG | 0.162
CUCGGGG | -0.0953
GCCUAAA | 0.418
